Published values of several laboratories.
Every numbered part comes from another study and shows a few of its results, in no order.

Block 1
Target: Interferon regulatory factor 7, full length, phosphomimetic (IRF7, Homo sapiens, UniProt Q92985, residues 1-503, S471D/S472D/S475D/S476D/S477D/S483D/S484D/S487D)
Chain of UniProt Q92985 (whole entry, unmodified, looked up): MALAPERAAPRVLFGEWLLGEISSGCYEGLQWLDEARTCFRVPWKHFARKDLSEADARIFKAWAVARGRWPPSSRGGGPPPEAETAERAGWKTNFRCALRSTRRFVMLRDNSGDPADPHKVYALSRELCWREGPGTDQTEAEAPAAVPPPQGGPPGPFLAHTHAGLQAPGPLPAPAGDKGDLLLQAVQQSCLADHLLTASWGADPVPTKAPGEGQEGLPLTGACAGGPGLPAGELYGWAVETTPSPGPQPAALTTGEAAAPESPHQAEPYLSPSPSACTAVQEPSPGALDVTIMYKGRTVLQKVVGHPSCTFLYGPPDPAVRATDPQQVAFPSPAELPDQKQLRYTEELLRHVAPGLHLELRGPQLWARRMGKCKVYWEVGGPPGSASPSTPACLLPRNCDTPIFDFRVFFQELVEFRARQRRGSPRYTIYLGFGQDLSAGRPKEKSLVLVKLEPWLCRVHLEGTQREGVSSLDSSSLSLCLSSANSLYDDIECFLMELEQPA
Technique: protein-binding microarray
Molecule type: double-stranded DNA, one strand shown
Sample: in vitro
Tested at: 2200 nM top
Setting: 60-bp whole probe
Together with: salmon DNA 0.4 mg/ml
Reference: random background probes
Direction: higher = stronger binding
Shared flanks, not repeated: GCCTAGCAC … GTCTTGATTCGCTTGACGCTGCTG
Sequence	fitted relative affinity
TTTTTGGATGCTGGAAAAATGTGCTAG	0.671 z-score
GACGATTTCAGGACTGGAGACGTGCTA	0.265 z-score
GACGGTATCGGGTTTCGGGAAGTGCTA	0.892 z-score
TCAATTATTGTCTTCCCACTGTGCTAG	1.46 z-score
TGAAAATTAGTGTTTGCCCTAGTGCTA	-0.336 z-score
TTAGGTCTCCTTCTCCTTTCGTGCTAG	1.73 z-score
TTATCAATCATTTTAGTTTTGTGCTAG	1.69 z-score
TTAGGACTGGGTCTCGGTTAGTGCTAG	-0.233 z-score
TTAGGTCTCCTTATCATTTAGTGCTAG	0.734 z-score
GACGATTTCGGGTATCAAGACGTGCTA	2.46 z-score
TTGAGTTTTCCTTCATGTGCGTGCTAG	1.98 z-score
ATGTTTTTCATTGTTTTTCAGTGCTAG	2.23 z-score
TCAGGTCTCCCTTGAGGACTGTGCTAG	0.13 z-score
GACGATACCGGGACTGGAGACGTGCTA	-0.293 z-score
TTAGAACTGGGGACTGGATCAGTGCTA	-0.313 z-score
CTGTTAAAGAATTAAGAAGGGTGCTAG	-1.24 z-score
TTAGGTCTTGGTCTCGGTTAGTGCTAG	0.753 z-score
TTAGATATCGGGAATGGATTAGTGCTA	-0.387 z-score
GACGGACCGGGGTTTCGGGACGTGCTA	0.243 z-score

Block 2
Target: Protein C-ets-1 (ETS1, Homo sapiens, UniProt P14921, residues 1-441, full length assumed)
Chain of UniProt P14921 (whole entry, looked up): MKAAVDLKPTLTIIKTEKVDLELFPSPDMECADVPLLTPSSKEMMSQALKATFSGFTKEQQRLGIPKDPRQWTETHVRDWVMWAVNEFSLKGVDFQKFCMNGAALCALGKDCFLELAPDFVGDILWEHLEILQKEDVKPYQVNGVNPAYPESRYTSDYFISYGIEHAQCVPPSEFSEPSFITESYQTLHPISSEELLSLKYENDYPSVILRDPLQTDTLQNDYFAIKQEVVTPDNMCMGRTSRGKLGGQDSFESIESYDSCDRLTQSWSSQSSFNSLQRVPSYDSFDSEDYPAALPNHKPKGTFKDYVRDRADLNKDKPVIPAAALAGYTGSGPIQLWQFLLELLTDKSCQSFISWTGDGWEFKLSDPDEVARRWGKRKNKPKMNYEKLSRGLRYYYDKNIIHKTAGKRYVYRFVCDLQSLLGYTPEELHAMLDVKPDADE
Technique: protein-binding microarray
Molecule type: double-stranded DNA, one strand shown
Sample: in vitro
Tested at: not given
Setting: k-mer, scored over probes, only values ≥0.25
Direction: higher = stronger binding
Sequence	E-score
ACCGGATG	0.497
ATCCGTCA	0.329
GGGGCGGA	0.388
GATCCGGA	0.419
ATGTCCGC	0.312
GGACGTAC	0.288
CCCGCGGA	0.25
CATAGGAA	0.315
AGGAAACC	0.419
GCACTTCC	0.461
GCGCCGGA	0.401
CGATTCCG	0.307
ACCCTTCC	0.369
CCTCTTCC	0.408
AAGGCGGA	0.297
CCGGGGCC	0.267
AGGATCCG	0.256
GGATGGAA	0.349
AAATACCG	0.287
CGGATGAC	0.399
CCGGAACA	0.449
CCGGGATA	0.299
ATCCTGTC	0.447
TGCCGGAA	0.467
GTCCGGAC	0.325

Block 3
Target: RNA binding protein fox-1 homolog 2, RRM domain, GST-SBP tag (RBFOX2, Homo sapiens, UniProt O43251-10, residues 100-194)
Technique: RNA Bind-n-Seq
Molecule type: RNA
Sample: in vitro
Tested at: 365 nM
Setting: natural RNA segment, single round, ends assumed
Reference: no-protein control
Direction: higher = stronger binding
Residues (chain): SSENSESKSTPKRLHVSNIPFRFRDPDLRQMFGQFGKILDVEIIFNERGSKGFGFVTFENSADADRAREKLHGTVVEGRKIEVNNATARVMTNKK
Sequence	RBNS enrichment (R)
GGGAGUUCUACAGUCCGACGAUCAUUAUUGCUUAUUUGAAAACAGUAUUCCCAACUUUUGUAAAGUUGUGUAUGUUUUUGCUUCCCAUGUAACUUCUCCAGUGUUCUGGCAUGAAUUAGAUUUUACUGCUUGUUGGAAUUCUCGGGUGCCAA	0.796
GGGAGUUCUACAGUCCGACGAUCAGUGUCCUAAAGGGAGUGCACUUCUUUGAAGCUGGUGUGUUAAUACUAUGUAAUAAAUGGUUAACUUUCAAAUGAUGCUGCUGCCAAAAUUAUAUUAAUAGUGAGUUUCAUGGAAUUCUCGGGUGCCAA	0.431
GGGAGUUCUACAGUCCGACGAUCAGGAGACAGAAGAGUUCUGAUGAUAGAUCUCUGCCUCAGUCUGUUGGCUGGCCUAAUCCCCAUGAUGAUUCCAGAAUAAUCUUGCAAAUUGGAUCAUGGCAGGUGCUUGUUGGAAUUCUCGGGUGCCAA	0.961
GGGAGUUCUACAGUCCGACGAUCUUUGUGAAGGUUUUUAUCUGUGUAGAAUGGGUGUUUGACUUGUUUUAGCCUAUUAAAUUUUUAUUUUCUUUCACUCUGUAUUAAAAGUAAAACUUACUAAAAGAAAAGAGUGGAAUUCUCGGGUGCCAA	1.18
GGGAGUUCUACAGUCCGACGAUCCAUUUCAUUUGUUAAUUUAGUUGUGUGUGUGUGUUAAAAGGAGCUAAUGCUUAUUCUGUUAAUGUAAACUUUUGAAGAUCUUAAGUGUAUUGCUCUUUCAUCUUAAACACUGGAAUUCUCGGGUGCCAA	0.687
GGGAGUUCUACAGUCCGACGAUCUUUCCAACCUUAAUACUAUUAGUAACCACAAGUUCAAGGGUCAAAGGGACCCUCUGUGCCUUCUUCUUUGUUUUGUGAUAAACAUAACUUGCCAACAGUCUCUAUGCUUAUGGAAUUCUCGGGUGCCAA	0.545
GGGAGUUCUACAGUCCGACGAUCCUAAGUUGCCCUGACUGGCCUUCAGCUGGCCUUACCCACUUCUUCAGUUACCCUGAACAUGGGGAGUGCAUCACGAUAGGGUGUGGCUGACCUCCAUUGCUUACCUGCCUUGGAAUUCUCGGGUGCCAA	0.359
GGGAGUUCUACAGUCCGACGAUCCUGUUGCUGUCUCUUGCUGGUGAAGCAAUACCAGCAGUUCCUGUAAUACCACAAUAUCGUUCCAUGCAUAUAUAACAUAUUAAUACUUGAUUUUGCUGAGCUGCAAAGGUUGGAAUUCUCGGGUGCCAA	1.06

Block 4
Target: Prothrombin, mature alpha-thrombin (F2, Homo sapiens, UniProt P00734)
Technique: aptamer microarray, sandwich
Molecule type: DNA with 2'F-ANA
Sample: in vitro
Tested at: 200 nM
Setting: whole 15-mer aptamer, many near background
Together with: Cy3 exosite-II aptamer, 400 nM
Direction: higher = stronger binding
Sequence: GGTTGGTGTGGTTGG
Modification	mean fluorescence intensity [a.u.]
2'F-ANA at 2 4 6 7 9 10 12 14	79.9
2'F-ANA at 1 2 3 4 5 7 10 11	46.7
2'F-ANA at 3 8 11 13 14 15	552
2'F-ANA at 2 4 5 6 7 8 9 11 12 13 14 15	50.8
2'F-ANA at 1 3 5 6 8 11 12 13 15	79.9
2'F-ANA at 1 3 4 5 6 11 12 13	170
2'F-ANA at 2 4 5 6 9 10 12 13	61
2'F-ANA at 1 2 3 4 7 8 12 14	112
2'F-ANA at 5 7 8 9 12 13	126
2'F-ANA at 1 4 5 6 7 9 10 11 12	71.9
2'F-ANA at 1 2 6 7 8 13 14 15	57.4
2'F-ANA at 1 5 6 8 9 11 14	57
2'F-ANA at 1 2 3 4 5 8 10 11 13 14	141
2'F-ANA at 2 5 6 9 12 14 15	46.2
2'F-ANA at 1 3 4 5 6 7 8 9 10 11 14 15	48.2
2'F-ANA at 1 2 3 5 6 8 10 11 14 15	76.8
2'F-ANA at 1 2 3 5 7 8 9 10 11 13 15	53.8
2'F-ANA at 1 3 5 6 14 15	62.2
2'F-ANA at 1 4 5 6 7 8 9 11 12 13 14	49
2'F-ANA at 1 2 4 7 9 12	325
2'F-ANA at 1 2 5 8 11 12	92.8
